# Experimental data from different studies.
# Lines come from different studies, so protocols differ. ± marks the error that the study gave.
# Low molecular weight phosphotyrosine protein phosphatase isoform A: Low molecular weight phosphotyrosine protein phosphatase, isoform A (Mus musculus, UniProt Q9D358)
# Chain of UniProt Q9D358 (whole entry, looked up): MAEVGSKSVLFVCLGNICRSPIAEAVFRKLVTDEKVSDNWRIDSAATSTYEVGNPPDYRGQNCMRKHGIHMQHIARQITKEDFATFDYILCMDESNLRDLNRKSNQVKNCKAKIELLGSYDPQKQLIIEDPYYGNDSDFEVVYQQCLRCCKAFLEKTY
# PSMB7: Proteasome subunit beta type-7 (PSMB7, Homo sapiens, UniProt Q99436)
# Chain of UniProt Q99436 (whole entry, looked up): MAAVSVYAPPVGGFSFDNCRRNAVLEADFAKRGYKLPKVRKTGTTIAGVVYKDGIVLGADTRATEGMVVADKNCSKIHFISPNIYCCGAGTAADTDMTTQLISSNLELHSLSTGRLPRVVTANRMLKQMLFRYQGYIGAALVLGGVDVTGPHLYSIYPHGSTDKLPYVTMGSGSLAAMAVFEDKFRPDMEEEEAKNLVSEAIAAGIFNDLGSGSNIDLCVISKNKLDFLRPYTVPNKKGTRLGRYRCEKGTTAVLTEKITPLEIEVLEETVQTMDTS
# Serotonin N-acetyltransferase: Serotonin N-acetyltransferase (Ovis aries, UniProt Q29495)
# Chain of UniProt Q29495 (whole entry, looked up): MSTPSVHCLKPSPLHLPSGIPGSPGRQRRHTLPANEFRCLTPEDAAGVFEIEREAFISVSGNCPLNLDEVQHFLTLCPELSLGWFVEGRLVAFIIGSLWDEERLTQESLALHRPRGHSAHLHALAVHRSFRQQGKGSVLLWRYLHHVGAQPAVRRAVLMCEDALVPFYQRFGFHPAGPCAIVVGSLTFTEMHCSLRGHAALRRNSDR
# Urease subunit alpha: Urease subunit alpha (Sporosarcina pasteurii, UniProt P41020)
# Chain of UniProt P41020 (whole entry, looked up): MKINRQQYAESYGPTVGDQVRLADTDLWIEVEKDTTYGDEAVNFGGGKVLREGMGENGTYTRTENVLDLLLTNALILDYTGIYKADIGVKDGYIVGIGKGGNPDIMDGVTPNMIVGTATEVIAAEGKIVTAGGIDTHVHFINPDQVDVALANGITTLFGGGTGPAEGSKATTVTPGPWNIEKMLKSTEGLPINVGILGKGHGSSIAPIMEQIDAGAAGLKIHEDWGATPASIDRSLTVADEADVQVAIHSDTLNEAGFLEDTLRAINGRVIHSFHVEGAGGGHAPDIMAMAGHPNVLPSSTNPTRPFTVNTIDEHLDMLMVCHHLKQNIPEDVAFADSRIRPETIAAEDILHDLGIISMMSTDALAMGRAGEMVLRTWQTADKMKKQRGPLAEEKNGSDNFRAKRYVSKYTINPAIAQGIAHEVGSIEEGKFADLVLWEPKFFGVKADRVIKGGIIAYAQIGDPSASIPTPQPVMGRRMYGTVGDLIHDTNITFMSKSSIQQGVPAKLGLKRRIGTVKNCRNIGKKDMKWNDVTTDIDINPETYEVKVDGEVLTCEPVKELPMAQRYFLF
# F12: Coagulation factor XII (F12, Homo sapiens, UniProt P00748)
# Chain of UniProt P00748 (whole entry, looked up): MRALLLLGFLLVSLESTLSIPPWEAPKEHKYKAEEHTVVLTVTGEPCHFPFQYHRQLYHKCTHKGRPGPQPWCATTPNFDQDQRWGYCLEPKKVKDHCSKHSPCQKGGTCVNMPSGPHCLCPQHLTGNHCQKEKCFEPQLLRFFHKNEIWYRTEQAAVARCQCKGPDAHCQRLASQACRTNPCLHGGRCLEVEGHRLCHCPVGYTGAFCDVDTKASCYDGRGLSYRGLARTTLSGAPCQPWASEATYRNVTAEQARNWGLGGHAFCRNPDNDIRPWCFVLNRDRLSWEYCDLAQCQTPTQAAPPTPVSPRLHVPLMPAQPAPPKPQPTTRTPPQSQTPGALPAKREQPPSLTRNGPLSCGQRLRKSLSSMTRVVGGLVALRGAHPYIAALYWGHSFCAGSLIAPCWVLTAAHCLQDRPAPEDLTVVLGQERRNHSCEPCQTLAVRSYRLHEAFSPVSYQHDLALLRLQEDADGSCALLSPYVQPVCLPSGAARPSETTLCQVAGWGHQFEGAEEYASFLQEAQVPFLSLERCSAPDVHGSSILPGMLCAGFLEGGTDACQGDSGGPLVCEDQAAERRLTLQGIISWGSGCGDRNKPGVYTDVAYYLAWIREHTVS
# Pancreatic alpha-amylase: Pancreatic alpha-amylase (Homo sapiens, UniProt P04746)
# Chain of UniProt P04746 (whole entry, looked up): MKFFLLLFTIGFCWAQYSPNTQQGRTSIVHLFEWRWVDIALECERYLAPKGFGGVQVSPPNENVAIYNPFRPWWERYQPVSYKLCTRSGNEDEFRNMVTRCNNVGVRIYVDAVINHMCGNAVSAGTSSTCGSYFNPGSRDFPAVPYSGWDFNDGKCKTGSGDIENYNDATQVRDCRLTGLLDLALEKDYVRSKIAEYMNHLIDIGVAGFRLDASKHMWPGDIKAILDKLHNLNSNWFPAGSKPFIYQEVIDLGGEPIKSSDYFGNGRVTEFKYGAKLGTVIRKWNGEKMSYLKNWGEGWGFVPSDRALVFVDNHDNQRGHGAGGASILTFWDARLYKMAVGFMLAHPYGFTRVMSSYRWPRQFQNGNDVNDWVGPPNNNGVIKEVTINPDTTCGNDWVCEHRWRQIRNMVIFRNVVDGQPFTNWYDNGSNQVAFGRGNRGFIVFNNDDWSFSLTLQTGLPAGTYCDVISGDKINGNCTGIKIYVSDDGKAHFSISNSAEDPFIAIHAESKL
# MAL12: Alpha-glucosidase MAL12 (MAL12, Saccharomyces cerevisiae S288c, UniProt P53341)
# Chain of UniProt P53341 (whole entry, looked up): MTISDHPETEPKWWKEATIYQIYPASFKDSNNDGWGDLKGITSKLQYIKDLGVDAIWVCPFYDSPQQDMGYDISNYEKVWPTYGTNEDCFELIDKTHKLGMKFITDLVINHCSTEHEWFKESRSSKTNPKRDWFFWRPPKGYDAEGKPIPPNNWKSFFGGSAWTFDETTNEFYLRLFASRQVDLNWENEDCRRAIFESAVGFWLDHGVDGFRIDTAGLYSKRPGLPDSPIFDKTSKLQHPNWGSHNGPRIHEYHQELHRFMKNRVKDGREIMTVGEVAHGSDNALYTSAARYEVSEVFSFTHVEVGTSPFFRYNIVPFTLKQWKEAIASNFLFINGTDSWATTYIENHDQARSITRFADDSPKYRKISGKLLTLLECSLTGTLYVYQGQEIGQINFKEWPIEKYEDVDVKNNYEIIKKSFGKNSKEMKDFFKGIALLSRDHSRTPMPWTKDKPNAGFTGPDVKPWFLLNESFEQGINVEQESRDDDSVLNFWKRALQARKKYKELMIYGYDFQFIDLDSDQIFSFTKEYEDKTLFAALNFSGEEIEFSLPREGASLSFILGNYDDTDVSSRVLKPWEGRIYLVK
# Chain of UniProt P54687 (whole entry, looked up): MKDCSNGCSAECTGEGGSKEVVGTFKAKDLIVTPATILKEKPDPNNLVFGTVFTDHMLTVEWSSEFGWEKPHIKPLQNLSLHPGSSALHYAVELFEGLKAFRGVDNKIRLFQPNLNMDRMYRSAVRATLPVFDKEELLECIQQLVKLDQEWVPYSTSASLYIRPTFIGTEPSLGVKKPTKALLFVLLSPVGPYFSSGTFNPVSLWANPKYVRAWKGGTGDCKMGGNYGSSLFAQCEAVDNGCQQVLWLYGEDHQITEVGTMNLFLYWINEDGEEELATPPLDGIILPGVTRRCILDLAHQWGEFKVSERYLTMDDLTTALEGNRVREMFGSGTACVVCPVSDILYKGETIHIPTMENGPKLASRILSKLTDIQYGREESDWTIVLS
# Chain of UniProt Q2M2I8 (whole entry, looked up): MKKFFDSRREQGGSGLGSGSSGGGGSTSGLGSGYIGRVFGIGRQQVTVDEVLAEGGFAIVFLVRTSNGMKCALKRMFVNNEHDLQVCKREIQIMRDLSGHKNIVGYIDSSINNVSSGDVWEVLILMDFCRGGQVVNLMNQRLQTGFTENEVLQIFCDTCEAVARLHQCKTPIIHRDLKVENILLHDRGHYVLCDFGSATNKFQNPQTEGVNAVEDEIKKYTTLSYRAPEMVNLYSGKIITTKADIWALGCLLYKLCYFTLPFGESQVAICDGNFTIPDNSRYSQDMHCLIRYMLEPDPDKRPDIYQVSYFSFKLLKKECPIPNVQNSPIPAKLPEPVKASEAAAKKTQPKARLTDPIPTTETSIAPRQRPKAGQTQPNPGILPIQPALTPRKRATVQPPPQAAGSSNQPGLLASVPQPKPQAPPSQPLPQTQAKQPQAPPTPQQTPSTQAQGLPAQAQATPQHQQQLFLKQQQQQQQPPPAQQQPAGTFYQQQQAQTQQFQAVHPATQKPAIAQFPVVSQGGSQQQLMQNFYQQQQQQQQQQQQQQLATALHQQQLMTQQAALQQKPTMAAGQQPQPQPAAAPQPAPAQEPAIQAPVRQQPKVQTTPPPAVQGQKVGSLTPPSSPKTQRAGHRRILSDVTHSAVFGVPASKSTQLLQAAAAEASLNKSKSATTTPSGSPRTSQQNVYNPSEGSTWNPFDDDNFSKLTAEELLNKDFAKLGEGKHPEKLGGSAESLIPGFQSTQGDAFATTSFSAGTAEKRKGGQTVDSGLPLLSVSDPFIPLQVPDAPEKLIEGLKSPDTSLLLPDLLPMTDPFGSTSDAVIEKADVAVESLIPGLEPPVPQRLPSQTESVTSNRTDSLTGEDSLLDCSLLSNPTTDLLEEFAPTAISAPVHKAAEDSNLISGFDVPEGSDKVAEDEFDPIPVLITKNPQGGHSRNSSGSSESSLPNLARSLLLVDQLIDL
# Chain of UniProt P53986 (whole entry, looked up): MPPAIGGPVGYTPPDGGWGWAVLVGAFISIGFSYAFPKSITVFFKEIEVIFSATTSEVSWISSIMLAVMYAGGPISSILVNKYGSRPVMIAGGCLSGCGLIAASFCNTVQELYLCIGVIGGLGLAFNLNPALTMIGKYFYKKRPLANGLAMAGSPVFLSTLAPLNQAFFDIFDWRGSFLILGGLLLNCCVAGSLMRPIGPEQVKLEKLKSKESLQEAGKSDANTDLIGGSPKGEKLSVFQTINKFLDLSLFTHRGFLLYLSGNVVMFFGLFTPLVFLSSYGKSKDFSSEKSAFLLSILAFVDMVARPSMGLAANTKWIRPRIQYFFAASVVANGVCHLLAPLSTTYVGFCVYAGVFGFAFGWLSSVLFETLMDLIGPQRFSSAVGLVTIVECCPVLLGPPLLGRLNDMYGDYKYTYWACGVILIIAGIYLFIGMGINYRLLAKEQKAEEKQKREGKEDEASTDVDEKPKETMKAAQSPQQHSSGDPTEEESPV
# Chain of UniProt P49720 (whole entry, looked up): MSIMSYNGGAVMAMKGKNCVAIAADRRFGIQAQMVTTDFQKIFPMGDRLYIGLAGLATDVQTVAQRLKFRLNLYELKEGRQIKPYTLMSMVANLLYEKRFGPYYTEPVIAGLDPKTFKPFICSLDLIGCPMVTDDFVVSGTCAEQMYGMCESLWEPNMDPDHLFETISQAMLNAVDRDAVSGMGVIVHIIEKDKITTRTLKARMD
Compound,target,test,system,setting,IC50 [µM]
Fc1ccc(-c2cc(NCCCN3CCCCC3)c3ccccc3n2)cc1,Low molecular weight phosphotyrosine protein phosphatase isoform A,"enzyme activity, inhibitor",,added: OMFP substrate,1.4
COc1ccc(C[C@H](NC(=O)[C@H](C)NC(=O)CN2CCOCC2)C(=O)N[C@@H](C[C@@H]2CCC[C@H]3CCCC[C@H]32)C(=O)[C@@]2(C)CO2)cc1,PSMB7,"enzyme activity, cell-based",,,> 10
NCCCCCCN1C(=O)/C(=C2/C(=O)N(Cc3ccc(F)cc3)c3ccccc32)SC1=S,Serotonin N-acetyltransferase,"inhibitor, stopped-flow UV",,"added: serotonin 100 µM, acetyl-CoA 100 µM",23
CC(C)C(=O)Nc1n[nH]c2cc(-c3cccc(NS(=O)(=O)C4CC4)c3)ccc12,"AAK1 (Homo sapiens, UniProt Q2M2I8)",,,,20
CC[C@@H]1[C@H](F)C(=O)N[C@@H]1COc1nccc2cc(C(N)=O)c(OC)cc12,"CDK14 (Homo sapiens, UniProt O94921)","ATP-site binding, ActivX KiNativ profiling",THP-1 cell lysate,Lys2 PFTAIRE1 probe site,> 5
Fc1ccc(/C=C/C=N/NC(=S)Nc2ccc(Cl)cc2)cc1,Urease subunit alpha,"enzyme activity, indophenol method",,,14 ± 0.7
O=C(O)Cc1ccc(N2C(=O)/C(=C3/C(=O)N(Cc4ccc(F)cc4)c4ccccc43)SC2=S)cc1,Serotonin N-acetyltransferase,"inhibitor, stopped-flow UV",,"added: serotonin 100 µM, acetyl-CoA 100 µM",9.8 ± 8.1
CC[C@H](C)[C@H](NC(=O)[C@H](CS)NC(=O)[C@H](CCC(=O)O)NC(=O)[C@H](C)NC(=O)[C@@H](NC(=O)[C@@H](N)CCCNC(=N)N)[C@@H](C)CC)C(=O)N[C@@H](CC(C)C)C(=O)NCC(=O)N[C@@H](CCSC)C(=O)O,"HLA class I histocompatibility antigen, B alpha chain, allele B*40:01 (Homo sapiens, UniProt P01889)","binding, competitor, radioligand competition",,"two days, room temperature, HLA-B*40:01",24.2
Nc1nccc2cc(CNC(=O)c3cnn(Cc4ccc(Cn5ccccc5=O)cc4)c3)ccc12,F12,,,,> 10
Cc1nc2ccccc2c(=O)n1NC(=O)CSc1nc2ccccc2c(=O)n1-c1ccccc1,Pancreatic alpha-amylase,"enzyme activity, inhibitor",,,430 ± 8.49
CCOc1ccnc(CNC(=O)c2cn(Cc3ccc(Cn4ccccc4=O)cc3)nc2COC)c1F,F12,,,,> 40
COc1cc(/C=N/n2c(C)nc3ccc(C)cc3c2=O)ccc1OCc1ccccc1,Pancreatic alpha-amylase,"enzyme activity, inhibitor",,,550 ± 25.7
COc1ccc(C2=NN(C3CCCCCC3)C(=O)[C@@H]3CC=CC[C@H]23)cc1-c1ccc(C(N)=O)cc1 (relative stereo),"PDEB1 (Trypanosoma brucei, UniProt Q8WQX9)","enzyme activity, inhibitor, scintillation proximity",,added: 0.5 µM substrate,0.158
Fc1ccc(/C=C/C=N/NC(=S)Nc2cccc(Cl)c2Cl)cc1,Urease subunit alpha,"enzyme activity, indophenol method",,,29 ± 0.5
O=C(O)CCCCCN1C(=O)S/C(=C2\C(=O)N(Cc3ccc(F)cc3)c3ccccc32)C1=O,Serotonin N-acetyltransferase,"inhibitor, stopped-flow UV",,"added: serotonin 100 µM, acetyl-CoA 100 µM",43 ± 37
COc1cc(/C=C/C(=O)CC(=O)/C=C/c2ccc(O)c(OC)c2)ccc1O,Karenia brevis thioredoxin reductase,"enzyme activity, inhibitor",,,3
CCc1ccc(/C=N/n2c(C)nc3ccc(C)cc3c2=O)s1,MAL12,"enzyme activity, inhibitor",Saccharomyces cerevisiae,added: 4-nitrophenyl glucopyranoside,37.2 ± 1.83
O=C(O)c1ccc(-c2cc(NCCCN3CCCCC3)c3ccccc3n2)cc1,Low molecular weight phosphotyrosine protein phosphatase isoform A,"enzyme activity, inhibitor",,added: OMFP substrate,2.1
CC(C)C[C@H](NC(=O)[C@H](CCc1ccccc1)NC(=O)CN1CCOCC1)C(=O)N[C@@H](Cc1ccccc1)C(=O)N[C@@H](CC(C)C)C(=O)[C@@]1(C)CO1,"Psmb7/Psmb6, β1 subunit (Mus musculus, UniProt P70195+Q60692)",proteasome subunit activity,Ba/F3 BCR-ABL1 T315I,1 h pulse,0.267 ± 0.0745
Cc1ccc(S(=O)(=O)Nc2ccc(F)cc2NS(=O)(=O)c2ccc(C)cc2)cc1,"Protein lin-28 homolog B (LIN28B, Homo sapiens, UniProt Q6ZN17)","pre-let-7d binding to Lin28B, inhibitor",,,14.4
CC(C)Cn1c(=O)n(C)c(=O)c2nc(CCCCCO)c(Cc3cccc4ccccc34)nc21,"Monocarboxylate transporter 1 (Slc16a1, Mus musculus, UniProt P53986)",lactate transport,MCF7 expressing Slc16a1,"10 min, added: [14C]lactate",0.192
O=C(O)CCCCCCN1C(=O)/C(=C2/C(=O)N(Cc3ccc(F)cc3)c3ccccc32)SC1=S,Serotonin N-acetyltransferase,"inhibitor, stopped-flow UV",,"added: serotonin 100 µM, acetyl-CoA 100 µM",64
COCc1nn(Cc2ccc(Cn3ccccc3=O)cc2)cc1C(=O)NCc1c(Cl)ccc(OC)c1F,F12,,,,> 40
Cn1cc2c(C(=O)O)ccc(NS(=O)(=O)c3ccc(OCC4CCC4)c(Cl)c3)c2n1,"HSD17B2 (Homo sapiens, UniProt P37059)","enzyme activity, inhibitor",,added: β-estradiol,> 100
c1ccc(-c2cc(N3CCCCC3)c3ccccc3n2)cc1,Low molecular weight phosphotyrosine protein phosphatase isoform A,"enzyme activity, inhibitor",,added: OMFP substrate,9.25
O=C(NNS(=O)(=O)c1ccccc1)c1ccc2oc3ccccc3c2c1,"BCAT1 (Homo sapiens, UniProt P54687)",inhibitor,,,1.53
CCCOc1nc(N)nc(N)c1OCCCOc1ccccc1CCC(=O)O,"uncharacterized protein (Mycobacteroides abscessus, UniProt B1MD46)","enzyme activity, inhibitor, NADPH fluorescence",,added: 1 nM enzyme,> 5
COc1cc(NCC(=O)Nn2c(C)nc3ccc(Cl)cc3c2=O)cc(OC)c1OC,MAL12,"enzyme activity, inhibitor",Saccharomyces cerevisiae,added: 4-nitrophenyl glucopyranoside,21 ± 1.27
COc1ccc(-c2ccc3c(N4CCOC[C@@H]4C)nc(N4CCOC[C@@H]4C)nc3n2)cc1COC(=O)CCOCCOCCOCCONC(=O)c1ccc(F)c(F)c1Nc1ccc(I)cc1F,"MAP2K1 (Homo sapiens, UniProt Q02750)","kinase activity, inhibitor, Z'-LYTE or Adapta",,,0.0832
Cc1cccc(C)c1NC(=S)N/N=C/C=C/c1ccc(F)cc1,Urease subunit alpha,"enzyme activity, indophenol method",,,11.9 ± 0.6
CC[C@H](C)[C@H](NC(=O)[C@H](Cc1ccccc1)NC(=O)[C@H](Cc1ccc(O)cc1)NC(=O)[C@@H]1CCCN1C(=O)[C@@H](N)Cc1ccc(O)cc1)C(=O)N1CCC[C@H]1C(=O)N[C@@H](CC(C)C)C(=O)NCC(=O)NCC(=O)NCC(=O)NCC(=O)NCC(=O)N[C@@H](CCC(=O)O)C(=O)N[C@H](C(=O)N[C@@H](CC(N)=O)C(=O)N[C@@H](CC(C)C)[C@@H](O)CC(=O)N[C@H](C(=O)N[C@@H](C)C(=O)N[C@@H](CCC(=O)O)C(=O)N1CCC[C@@H]1C(=O)N[C@@H](CCCCNC(=O)CCC(=O)O[C@H]1CC[C@@]2(C)C(=CC[C@H]3[C@@H]4CC[C@H]([C@H](C)CCCC(C)C)[C@@]4(C)CC[C@@H]32)C1)C(N)=O)C(C)C)C(C)C,"Beta-secretase 1 (BACE1, Homo sapiens, UniProt P56817)","Aβ40 lowering, AlphaLISA, item: Aβ40",HEK293 expressing wild-type human APP695,,3.2e-05
NC(=O)c1ccc(-c2cc(NCCCN3CCCCC3)c3ccccc3n2)cc1,Low molecular weight phosphotyrosine protein phosphatase isoform A,"enzyme activity, inhibitor",,added: OMFP substrate,0.67
CC(=O)c1ccc2cc(S(=O)(=O)Nc3ccc(Br)cc3)ccc2c1,"STAT3 (Homo sapiens, UniProt P40763)","tyrosine phosphorylation, inhibitor, ELISA, item: phospho-Tyr705",,,3.02
C[C@@H]1CN(C(=O)c2ccc(NC(=O)c3cc(O[C@H](C)c4c(Cl)ccc(F)c4Cl)c(N)nn3)cc2)C[C@H](C)N1,"ALK (Homo sapiens, UniProt Q9UM73, G1202R)","enzyme activity, inhibitor",,added: 1 mM ATP,0.674
O=c1nc(SCc2cc(F)cc(C(F)(F)F)c2)nc(SCc2ccc3sccc3c2)[nH]1,"TOP2A (Homo sapiens, UniProt P11388)","ATPase activity, ATP-competitive inhibitor",,added: ATP 0.25 mM,18.1
COCC(=O)N1CCC[C@H](C(=O)NCc2nc(-c3ccccc3)cs2)C1,"PSMB1/PSMB8/PSMB3 (Homo sapiens, UniProt P20618+P28062+P49720)",,,,> 30
C=CC(=O)Nc1cc(Nc2nccc(Nc3cc(Cl)c(F)cc3C(C)(C)O)n2)c(OC)cc1N1CC[C@@H](N(C)C)C1,"EGFR (Homo sapiens, UniProt P00533)",,mouse,,1.14
c1ccc(CN(CCN(Cc2ccccn2)Cc2ccccn2)Cc2ccccn2)cc1,"Proteasome subunit beta type-7, in 20S proteasome (PSMB7, Homo sapiens, UniProt Q99436)","trypsin-like activity, inhibitor, purified 20S proteasome",,"pH 7.4, added: 20 µM Bz-VGR-AMC",> 1000
c1ccc(-c2cc(SCCCN3CCCCC3)c3ccccc3n2)cc1,Low molecular weight phosphotyrosine protein phosphatase isoform A,"enzyme activity, inhibitor",,added: OMFP substrate,66.9
CN1CCN(c2ccc(Nc3ncc4cc(C#N)c(=O)n(C5CCCC5)c4n3)cc2)CC1,"STK33 (Homo sapiens, UniProt Q9BYT3)",,,,0.497
O=C1NC(=O)/C(=C2/C(=O)N(Cc3ccc(F)cc3)c3ccccc32)S1,Serotonin N-acetyltransferase,"inhibitor, stopped-flow UV",,"added: serotonin 100 µM, acetyl-CoA 100 µM",> 60
CC(C)C[C@H](NC(=O)c1cnccn1)C(=O)N[C@@H](C)C(=O)N[C@H](/C=C/S(C)(=O)=O)Cc1ccc(CN)cc1,PSMB7,"inhibitor, biochemical",,,0.238
Oc1ccc([C@@H]2c3c(O)cc(O)cc3[C@@H]3c4c(cc(O)cc4[C@H]2[C@@H]2c4cc(O)cc5c4[C@@H](c4cc(O)cc(O)c4[C@H]2c2ccc(O)cc2)[C@H](c2ccc(O)cc2)O5)O[C@H]3c2ccc(O)cc2)cc1,Pancreatic alpha-amylase,"enzyme activity, inhibitor, HPAEC-PAD",,added: maltoheptaose substrate,> 100
COc1cc(C(=O)NS(=O)(=O)c2ccccc2C)ccc1Cc1cn(C)c2ccc(NC(=O)OC3CCCC3)cc12,"LRRC8A/LRRC8C (Homo sapiens, UniProt Q8IWT6+Q8TDW0)","ion current, inhibitor, whole-cell patch clamp","HCT116 LRRC8 knockout, transfected","+100 mV, LRRC8A/LRRC8C heteromer",17.6
N=C(N)c1ccc(CNC(=O)c2cnn(Cc3ccccc3)c2)cc1,F12,,,,> 40
